Measured values gathered from unrelated publications.
Every numbered part comes from another study and shows a few of its results, in no order.

Block 1
Target: PABPC1L2, full length, GST fusion (mouse, UniProt A0ABA7IW68)
Method: RNAcompete
Molecule type: RNA
Matrix: in vitro
Tested at: 20 nM
Notes: 7-mer, probes averaged, single round
Relative to: mean of 7-mers
Reading: higher = stronger binding
Measurement: 7-mer Z-score
Residues (chain): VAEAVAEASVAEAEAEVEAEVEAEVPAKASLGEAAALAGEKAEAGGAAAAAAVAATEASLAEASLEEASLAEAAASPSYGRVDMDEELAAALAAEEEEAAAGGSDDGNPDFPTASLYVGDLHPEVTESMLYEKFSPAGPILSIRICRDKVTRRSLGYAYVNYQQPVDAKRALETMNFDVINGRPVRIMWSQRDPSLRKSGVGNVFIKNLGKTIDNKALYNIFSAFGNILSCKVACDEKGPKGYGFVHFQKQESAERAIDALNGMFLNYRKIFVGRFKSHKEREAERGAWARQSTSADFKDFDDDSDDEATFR
Sequence = GAGAGAA; result = 0.177
Sequence = UGGCCAG; result = -0.19
Sequence = UCCCGCA; result = -0.302
Sequence = UAUUAAC; result = -0.137
Sequence = CUCUCGU; result = -0.476
Sequence = UGGCCGU; result = -0.171
Sequence = GCAUUUA; result = 0.35
Sequence = AGGCGGC; result = 0.204

Block 2
Cell line: HEK-293T
Observed: pseudovirus infection
Method: FDA-approved drug library screen
Organism: VSV pseudotyped with SARS-CoV-2 spike
Tested at: 10 µM
Time: 16 h
Relative to: vehicle-treated
Measurement: GFP-positive cells
Structure (SMILES) = C[C@H](CCC(=O)O)[C@H]1CC[C@H]2[C@@H]3[C@H](O)C[C@@H]4C[C@H](O)CC[C@]4(C)[C@H]3CC[C@]12C; result = 97.1%
Structure (SMILES) = CNCC[C@@H](Oc1ccccc1C)c1ccccc1; result = 52.4%
Structure (SMILES) = CCOC(=O)O[C@]1(C(=O)OCCl)CC[C@H]2[C@@H]3CCC4=CC(=O)C=C[C@]4(C)[C@H]3[C@@H](O)C[C@@]21C; result = 105%

Block 3
Target: RING finger protein unkempt homolog, zinc fingers 1-6, GST-SBP tag (UNK, Homo sapiens, UniProt Q9C0B0, residues 30-357)
Chain of UniProt Q9C0B0 (30-357, looked up): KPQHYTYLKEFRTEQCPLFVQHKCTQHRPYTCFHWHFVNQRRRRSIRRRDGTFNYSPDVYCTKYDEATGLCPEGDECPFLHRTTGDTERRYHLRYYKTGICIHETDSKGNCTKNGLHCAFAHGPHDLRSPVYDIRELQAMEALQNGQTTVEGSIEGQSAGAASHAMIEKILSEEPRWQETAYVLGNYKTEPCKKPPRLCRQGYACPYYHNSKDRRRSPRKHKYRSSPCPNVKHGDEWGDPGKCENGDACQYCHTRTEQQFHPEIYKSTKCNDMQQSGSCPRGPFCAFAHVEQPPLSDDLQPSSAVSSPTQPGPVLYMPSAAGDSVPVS
Method: RNA Bind-n-Seq
Molecule type: RNA
Matrix: in vitro
Tested at: not given
Notes: RNA with constant flanks, human-mouse chimeric sites, ends assumed
Relative to: input RNA pool
Reading: higher = stronger binding
Measurement: bound/input enrichment
Constant ends, left off below: GGGAGUUCUACAGUCCGACGAUC … CAACAGAGGAUUGAGCAUCA
Sequence = UCAGGAACCCAGACAAACAUGAAUGUAAAUGAAGUCAUUAGCAACAGAGCAAUUGAAAUGUUAGGAGGUGAACUUGGCAGCAAGAUACCUGUGCAUCCCAAUGAUCAUGUUAACAAAAGC; result = 0.356 ratio
Sequence = ACAGUUAUAUUGUUGAGUUUCAUUUUCUUGUAUGUUUGUAGUGUCUGCUUGCCUGUGACUUCUGGUAAAAUAAAAUAUUAAAAUUACAAUAUUUUAGCAUGGUAUUUAACAUUUUCUAAA; result = 0.796 ratio
Sequence = AAAGAACUACUGAGGCAAGGCAGCAAAUUUAGGAGAGACAUUUCAACAAUAUUGAUAGAGUUAGGAUUCCAAAUUAAAAAGAAAACUAAAAGAUUGUAUAUCAACAAAGCCAAUGUGUGG; result = 7.18 ratio
Sequence = GAUAAGAAAAGCUUGUUGGAGACCCGCUUGCACAUCACUGGUAGAGACCUGAGGUGUCAAAUAGCUGAAACUUUCGGAUUUCAAGAAAAUUACAUCAAGAUCGUAAUAAAUAAGAAGCAG; result = 0.473 ratio
Sequence = AGAAUCUUGGGACUGUUUUACUUAAUUGGUCAUUGAUAGCUUAACAAACAUGGAGAUAAGAUUAGAAAUCUUGACAUCAACAAGUAUCAAGCAGAAAAAACCAUGGCCACGUGUCUCCUG; result = 0.142 ratio
Sequence = CUAGCAGUCCAGCAGCUAGAAGGAGCCUUGAGACAAACACUCCACACACAGGGAAGGCGAUAACAUUGUACAUUGGUUUACAUUUUUUCCCCCUGUGGAUUUUUCUAGAGGUCAUAGUGC; result = 0.728 ratio
Sequence = UUUGUAUUUAUGCUAAGCACACGUGCUGGUGGUCUGGGCAUCAAUCUUGCAACUGCUGAUGUAGUCAUUUUGUAUGACUCAGAUUGGAAUCCGCAAGUUGAUCUUCAGGCUAUGGACCGU; result = 0.1 ratio
Sequence = CUGGCACUGUAUCAGAUAUAUUAAUUUUUUAAUGUAGAUGUAAUUUUAAAAAUGAAUGGCUACUUUACACGUUUAACUAGGGUUUUACUAUAUAUGUGUACAUAUGUAUAUGUAUUUAUA; result = 5.79 ratio

Block 4
Organism: SARS-CoV-2
Observed: cytopathic effect
Cells: Vero E6
Tested at: 10 µM
Measurement: inhibition
SMILES = Cc1ccc(-n2sc3ccccc3c2=O)cc1; result = -9.9%
SMILES = COc1ccc(OC)c2c(=S)c3ccccc3[nH]c12; result = -2.6%
SMILES = CCN(CC)C(=S)[S-].O.O.O.[Na+]; result = -0.14%
SMILES = O=C(CC1Sc2ncnn2C1=O)Nc1ccc(Br)cc1 (centres unmarked); result = 5%

Block 5
Target: Replicase polyprotein 1ab, nsp13 helicase (rep, Severe acute respiratory syndrome coronavirus 2, UniProt P0DTD1)
Action: inhibitor
Tested at: 20 µM
Measurement: inhibition
SMILES = C[C@]12CC[C@@H]3c4ccc(O)cc4C[C@@H](CCCCCCCCC[S+]([O-])CCCC(F)(F)C(F)(F)F)[C@H]3[C@@H]1CC[C@@H]2O (some centres unmarked); result = 2.64%
SMILES = Cc1ccc(NCCCc2ccccc2)c(N)c1; result = 5.97%
SMILES = COc1cccc2c1C(=O)c1c(O)c3c(c(O)c1C2=O)C[C@@](O)(/C(CO)=N/NC(=O)CCCCCN1C(=O)C=CC1=O)C[C@@H]3O[C@H]1C[C@H](N)[C@H](O)[C@H](C)O1; result = 96.6%
SMILES = C[C@@H](O)[C@H]1C(=O)N2C(C(=O)O)=C(S[C@@H]3CN[C@H](CNS(N)(=O)=O)C3)[C@H](C)[C@H]12; result = 4.98%
SMILES = CC(C)(Oc1ccc(C(=O)c2ccc(Cl)cc2)cc1)C(=O)O; result = 5.21%
SMILES = O=C(c1ccc(-c2ccc(Cl)cc2)o1)N(Cc1ccccn1)c1ccc(N2CCNCC2)cc1; result = 10.6%
SMILES = Cc1c(O)c(=O)ccn1C; result = 8.38%
SMILES = c1ccc(C[C@H](c2ccccc2)N2CCCCC2)cc1 (racemic); result = 3.16%
SMILES = CC(COc1ccccc1)N(CCCl)Cc1ccccc1 (centres unmarked); result = 18.9%
SMILES = CC[C@H](C(=O)N1CCCC[C@H]1C(=O)O[C@H](CCc1ccc(OC)c(OC)c1)c1cccc(OCC(=O)NCCNC(=O)COc2cccc([C@@H](CCc3ccc(OC)c(OC)c3)OC(=O)[C@@H]3CCCCN3C(=O)[C@@H](CC)c3cc(OC)c(OC)c(OC)c3)c2)c1)c1cc(OC)c(OC)c(OC)c1; result = 6.93%
SMILES = NC[C@@](O)(c1ccc(Cl)cc1)c1ccc(-c2cn[nH]c2)cc1; result = 4.74%
SMILES = CC(C)(C)S(=O)(=O)N[C@H]1CC[C@H](C(=O)Nc2ccc(C(F)(F)F)cn2)CC1; result = 4.17%
SMILES = C#CCN(C)Cc1ccccc1; result = 1.11%
SMILES = CC(C)(C)[C@H]1CC[C@H](CC2=C(O)C(=O)c3ccccc3C2=O)CC1; result = -2.97%
SMILES = CC(C)NCC(O)COc1ccccc1-n1cccc1 (centres unmarked); result = 8.14%
SMILES = Cc1c(N)c(=O)n(-c2ccccc2)n1C; result = 1.3%
SMILES = CC1(C)S[C@@H]2[C@H](N)C(=O)N2[C@H]1C(=O)O; result = 2.62%
SMILES = Cc1ccccc1N1CCN(S(=O)(=O)C[C@]23CC[C@H](C[C@@H]2NC(=O)[C@@H](N)CCS(C)(=O)=O)C3(C)C)CC1; result = 0.3%
SMILES = CN[C@@H](C)C(=O)N[C@H](C(=O)N1CCC[C@H]1c1nc(C(=O)c2ccc(F)cc2)cs1)C1CCCCC1; result = 1.84%
SMILES = N[C@@H]1CCN(O)C1=O; result = 4.89%
SMILES = CN1CCN(c2ccc(/C=C(\C#N)c3ccccc3Br)cc2)CC1; result = 4.37%
SMILES = OCCNC1CCCc2c1[nH]c1ccc(-c3ccccc3)cc21 (centres unmarked); result = -0.6%
SMILES = COc1oc(=O)c2cc(N)ccc2c1Cl; result = 4.54%
SMILES = CCNC(=O)CCC/C=C\C[C@@H]1[C@@H](/C=C/[C@@H](O)CCc2ccccc2)[C@H](O)C[C@@H]1O; result = -2.05%
SMILES = CC(=O)OCC(=O)NCCCOc1cccc(CN2CCCCC2)c1; result = 7.44%

Block 6
Target: TAR DNA-binding protein 43, full length, His tag (TARDBP, Homo sapiens, UniProt Q13148, residues 1-414)
Method: RNA Bind-n-Seq
Molecule type: RNA
Matrix: in vitro
Tested at: 20 nM
Notes: 6-mer, flanks averaged, single round
Added: 150 mM KCl
Relative to: input library
Reading: higher = stronger binding
Measurement: 6-mer enrichment (R)
Sequence = GGUCCC; result = 0.857
Sequence = GGGUUG; result = 3.54
Sequence = GUGUGC; result = 1.71
Sequence = GCUGCA; result = 0.878
Sequence = AACAAG; result = 0.833
Sequence = GUAUAC; result = 0.653
Sequence = UGGUGU; result = 1.41
Sequence = ACGAUA; result = 0.623

Excerpt of the above (block 5):
SMILES = Cc1ccc(NCCCc2ccccc2)c(N)c1; result = 5.97%
SMILES = COc1cccc2c1C(=O)c1c(O)c3c(c(O)c1C2=O)C[C@@](O)(/C(CO)=N/NC(=O)CCCCCN1C(=O)C=CC1=O)C[C@@H]3O[C@H]1C[C@H](N)[C@H](O)[C@H](C)O1; result = 96.6%
SMILES = C[C@@H](O)[C@H]1C(=O)N2C(C(=O)O)=C(S[C@@H]3CN[C@H](CNS(N)(=O)=O)C3)[C@H](C)[C@H]12; result = 4.98%
SMILES = CC(C)(Oc1ccc(C(=O)c2ccc(Cl)cc2)cc1)C(=O)O; result = 5.21%
SMILES = O=C(c1ccc(-c2ccc(Cl)cc2)o1)N(Cc1ccccn1)c1ccc(N2CCNCC2)cc1; result = 10.6%
